Assay results gathered from unrelated publications.
Each line is one published result; not all experiments were run side by side. “And” joins repeats or separate records; there may be more than shown. ± marks the error that the study gave.

The decatenated DNA of `O=c1nc(SCc2cc(F)cc(C(F)(F)F)c2)nc(SCc2ccc3nc(OCCN4CCOCC4)ccc3c2)[nH]1` is reported as 0% (TOP2A (Homo sapiens, UniProt P11388); decatenation; 125 µM, replicate 1).
For `CCCCCCCCCCCO`, the relative fluorescence was 34.2% (uncharacterized protein (Spodoptera exigua, UniProt F1CEY0); binding, competitor, fluorescence displacement; 20 µM, pH 7.4, with: 1-NPN 20 µM; reference: 1-NPN alone).
The remaining activity of `COc1cc(Nc2ncc3c(n2)-c2ccc(Cl)cc2C(c2c(F)cccc2OC)=NC3)ccc1C(=O)O` is reported as 92% (PDGFRB; kinase activity; 1 µM).
`NCCCC(=O)O`: “normalised MST signal” -0.0714 (SLC6A6 (Homo sapiens, UniProt P31641, L306A); binding, microscale thermophoresis; 244 nM, room temperature, with: 50 nM labelled protein; higher = more binding).
`Nc1ccc(C(=O)O)cc1` has a current density of 4.73 pA/pF and 1.74 pA/pF and 3.56 pA/pF and 3.65 pA/pF and 3.71 pA/pF and 1.55 pA/pF (BEST1, with wild-type BEST1 (Homo sapiens, UniProt O76090, D302A); ion current, whole-cell patch clamp; HEK293 co-expressing mutant and wild-type; concentration not given, voltage 20 mV).
For `C=CC(=O)N1CCC(COCC(=O)N2CCN(c3nc(-c4cnc(N)nc4C(F)F)nc(N4CCOC[C@@H]4C)n3)CC2)CC1`, the remaining binding was 100% (CDK5 (Homo sapiens, UniProt Q00535); KINOMEscan; 1 µM).
`COc1cc(O)c2c(c1)oc(=O)c1c3cc(O)c(O)cc3oc21` — result for “random coil content”: 41.6% (MAL12 (Saccharomyces cerevisiae S288c, UniProt P53341); circular dichroism; molar ratio 1:2).
`O=C(COP(=O)(O)O)[C@@H](O)[C@H](O)[C@H](O)COP(=O)(O)O` gave a melting temperature of 69 ± 0.2 °C (Fructose-1,6-bisphosphatase 1 (Mus musculus, UniProt Q9QXD6, G27P); thermal shift; 0.1 mM, G27P mutant, with: AMP 0.2 mM).
For `O=C(O)CCCOc1cccc(CNC(=O)C#Cc2cn(Cc3ccc(C(=O)O)cc3)c(=O)[nH]c2=O)c1`, the log IC50 was -8.24 ± 0.153 (Collagenase 3 (MMP13, Homo sapiens, UniProt P45452); protease activity, FRET).
`O=[N+]([O-])c1cc(C(F)(F)F)ccc1NCc1ccsc1` gave a ΔG of -8.54 ± 0.45 kcal/mol (Endothelial PAS domain-containing protein 1, PAS-B domain (EPAS1, Homo sapiens, UniProt Q99814, N288A); binding, ITC, reverse mode).
For `CCCCC[C@H](O)/C=C/[C@H]1C(=O)C[C@H](O)[C@@H]1C/C=C\CCCC(=O)O`, the Emax was 89 ± 9% (PTGDR (Homo sapiens, UniProt Q13258, R332A); agonist).
`Cc1cn([C@H]2C[C@H](N=[N+]=[N-])[C@@H](CO)O2)c(=O)[nH]c1=O` has a Vmax of 586 ± 128 pmol/min/mg protein (UGT2B7 (Homo sapiens, UniProt P16662); glucuronidation, substrate; washed microsomes; with: 2% BSA).
`CC1(C)CC2(C)OC(=O)NC2(C)c2ccccc21` (stereo not shown) — result for “log fold enrichment”: 0.0569 (DNA mismatch repair protein Msh6 (Homo sapiens, UniProt P52701); binding, affinity selection mass spectrometry; reference: other proteins in batch).
`O=C(C1=C(O)C(=O)N(c2ccc(Br)cc2F)C1C1CCCCC1)C1CC1` (stereo not shown) has a Hill slope of -0.4 ± 0.07 (CCR1 (Homo sapiens, UniProt P32246); inverse agonist; U2OS; no agonist).
The ligand efficiency of `NC(c1csc(Nc2nncc3ccccc23)n1)c1ccccc1Cl` (stereo not shown) is reported as 0.31 (ADORA2A (Homo sapiens, UniProt P29274); radioligand displacement; with: [3H]ZM241385).
For `Cc1nc(NC(=O)N2CCC[C@H]2C(N)=O)sc1-c1ccnc(C(C)(C)C(F)(F)F)c1`, the remaining binding was 100% (Tyrosine-protein kinase JAK1, JH2 pseudokinase domain (JAK1, Homo sapiens, UniProt P23458); KINOMEscan; 10 µM).

Excerpt of the above:
For `CCCCCCCCCCCO`, the relative fluorescence was 34.2% (uncharacterized protein (Spodoptera exigua, UniProt F1CEY0); binding, competitor, fluorescence displacement; 20 µM, pH 7.4, with: 1-NPN 20 µM; reference: 1-NPN alone).
The remaining activity of `COc1cc(Nc2ncc3c(n2)-c2ccc(Cl)cc2C(c2c(F)cccc2OC)=NC3)ccc1C(=O)O` is reported as 92% (PDGFRB; kinase activity; 1 µM).
